{"data": "Assay results gathered from unrelated publications", "CDC48A": "CDC48A 1-463 (Arabidopsis thaliana, UniProt P54609)", "TNFSF4": "TNFSF4 51-183 (Homo sapiens, UniProt P23510)", "B1": "PUX9 (Arabidopsis thaliana, UniProt Q4V3D3); chain MVSPTRDAIQSYMSITGASESLAIQRLEEHGNNLPEAINAHFRDVERSIYDDSSLDTRSDYNVVEDNNHVRGSETRPVNESRPVPGALPSILSAARAFRPSLLLDPNYRRNILRQLSGSALSGSPSPSSHTGEVTGFPAHSTWGNDHTRPPGLGAVGDGYARHSPSYGSQVHGGTHRDADSPVHSNDAEEEMIRAAIEASKKDFQEGRLNTRYSLDNNPSSVLSPREVINREDEDIARAISMSLEMEEHESVLRDQLAEFMPQSVEHHDPCQSNTNESTRYQPGSSSVQDNREDMNQKQPINSSSQHRHDLQNSEGSYPEEWGGIPSKELQEAIMLEKAIFGGVANESASHNNQLGIHKESQSPNQRVVREEPERKAALPIEPSGENEDAITLLVRMPDSSRHGRRFLKSDKLKYLFDFIDAAGLVKPGTYRVVRPYPRRAFSIQDGALTFEELSLTNKQEALFLELLV", "B2": "DTNA 458-564 (Homo sapiens, UniProt Q9Y4J8-1); sequence looked up; chain SAPDISFTIDANKQQRQLIAELENKNREILQEIQRLRLEHEQASQPTPEKAQQNPTLLAELRLLRQRKDELEQRMSALQESRRELMVQLEGLMKLLKTQGAGSPRSS", "B3": "RelA/NFKB1 190-321 F309A; chain 1 NTAELKICRVNRNSGSCLGGDEIFLLCDKVQKEDIEVYFTGPGWEARGSFSQADVHRQVAIVFRTPPYADPSLQAPVRVSMQLRRPSDRELSEPMEFQYLPDTDDRHRIEEKRKRTYETAKSIMKKSPFNGP; chain 2 LKIVRMDRTAGCVTGGEEIYLLCDKVQKDDIQIRFYEEEENGGVWEGFGDFSPTDVHRQFAIVFKTPKYKDVNITKPASVFVQLRRKSDLETSEPKPFLYYPE", "B4": "PUX5 301-421 (Arabidopsis thaliana, UniProt Q7Y175); chain KNPFQGVGRTLGASGSGSSSAPQASSAPMNVAPAPSRGLVVDPAAPTTSIQLRLADGTRLVSRFNNHHTVRDVRGFIDASRPGGSKEYQLLTMGFPPKQLTELDQTIEQAGIANAVVIQKF", "B5": "TNFRSF4 29-170 (Homo sapiens, UniProt P43489); sequence looked up; chain LHCVGDTYPSNDRCCHECRPGNGMVSRCSRSQNTVCRPCGPGFYNDVVSSKPCKPCTWCNLRSGSERKQLCTATQDTVCRCRAGTQPLDSYKPGVDCAPCPPGHFSPGDNQACKPWTNCTLAGKHTLQPASNSSDAICEDRD", "B6": "PIK3R1 1-79 (Homo sapiens, UniProt P27986); chain MSAEGYQYRALYDYKKEREEDIDLHLGDILTVNKGSLVALGFSDGQEARPEEIGWLNGYNETTGERGDFPGTYVEYIGR", "B7": "ATG23 full-length, dimer (Saccharomyces cerevisiae, UniProt Q06671); sequence looked up; chain MELNQVLEKKEQILQYLGTLVGLHEKALSDVNSASQVTSIRKDITICLNDLCRINDLLVSHDGLLKREIGSLLRDKQELLELNEREQLLWKERKSWHIKQETDAAPADYVIDKDAIITISSHHRTSLNKYIESVGAENTILSNTDDSDAMIEEVQNAESSADQMIRNYKLLQLSHKQAKSEIIRLETLLRDFKKDNKFIEEELKRQSGRIRSEMGNIDFHLSKIEESKHQLMKRIGFESPLTQEKSLSEKIFNLRLSSADEDYNERQTINMKNFVHMKDLIELKIEDLQEQLMRNKNESSTVLTQRELWLDCQKKVGDLESKLITKLRSSSNSKIPPNEMSEMINSTIQYLNNLLDSSDEKLTTTLISNERDVLSKACEELHSESTTAQDGSSALPSKPIDIHKSHKGSNASSNLKQPSTPSFLVASKSPPKIGISESVVNANKNDAISKKVE", "B8": "TNFRSF4 29-170 W86A (Homo sapiens, UniProt P43489); sequence looked up; chain LHCVGDTYPSNDRCCHECRPGNGMVSRCSRSQNTVCRPCGPGFYNDVVSSKPCKPCTACNLRSGSERKQLCTATQDTVCRCRAGTQPLDSYKPGVDCAPCPPGHFSPGDNQACKPWTNCTLAGKHTLQPASNSSDAICEDRD", "note": "Compare with care: the assays were run in different laboratories. Numbers after ± are the reported error.", "UniProt P25963, sequence (whole entry, unmodified, looked up)": "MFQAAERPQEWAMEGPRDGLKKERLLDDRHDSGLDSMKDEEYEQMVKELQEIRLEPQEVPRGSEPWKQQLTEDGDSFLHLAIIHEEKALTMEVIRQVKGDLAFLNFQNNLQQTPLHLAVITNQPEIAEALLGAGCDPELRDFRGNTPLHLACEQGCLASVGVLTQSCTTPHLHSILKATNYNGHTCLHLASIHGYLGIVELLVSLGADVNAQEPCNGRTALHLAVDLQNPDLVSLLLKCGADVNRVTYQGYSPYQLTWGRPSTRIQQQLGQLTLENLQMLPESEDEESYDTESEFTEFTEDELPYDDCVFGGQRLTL", "UniProt P54609, sequence (whole entry, looked up)": "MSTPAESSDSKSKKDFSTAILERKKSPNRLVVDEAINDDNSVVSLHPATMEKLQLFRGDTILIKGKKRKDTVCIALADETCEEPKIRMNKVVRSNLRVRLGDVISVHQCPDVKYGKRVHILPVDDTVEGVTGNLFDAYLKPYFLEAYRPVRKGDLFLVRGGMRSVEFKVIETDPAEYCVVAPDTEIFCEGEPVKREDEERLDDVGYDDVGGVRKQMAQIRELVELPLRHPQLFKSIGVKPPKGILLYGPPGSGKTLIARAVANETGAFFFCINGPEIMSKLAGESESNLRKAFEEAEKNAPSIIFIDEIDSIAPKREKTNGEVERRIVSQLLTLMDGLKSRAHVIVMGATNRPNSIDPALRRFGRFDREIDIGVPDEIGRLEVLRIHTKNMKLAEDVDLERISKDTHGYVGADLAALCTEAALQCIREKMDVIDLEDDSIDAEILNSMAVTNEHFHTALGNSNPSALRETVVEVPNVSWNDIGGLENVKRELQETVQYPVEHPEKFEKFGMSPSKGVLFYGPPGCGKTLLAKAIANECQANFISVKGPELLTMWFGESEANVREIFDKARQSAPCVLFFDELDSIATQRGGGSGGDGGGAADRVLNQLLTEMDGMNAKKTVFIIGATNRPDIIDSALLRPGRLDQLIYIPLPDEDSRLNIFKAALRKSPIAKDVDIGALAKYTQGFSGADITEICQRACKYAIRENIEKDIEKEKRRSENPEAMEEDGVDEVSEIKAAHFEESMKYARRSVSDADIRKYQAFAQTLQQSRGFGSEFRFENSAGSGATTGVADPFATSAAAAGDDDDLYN", "UniProt P23510, sequence (whole entry, looked up)": "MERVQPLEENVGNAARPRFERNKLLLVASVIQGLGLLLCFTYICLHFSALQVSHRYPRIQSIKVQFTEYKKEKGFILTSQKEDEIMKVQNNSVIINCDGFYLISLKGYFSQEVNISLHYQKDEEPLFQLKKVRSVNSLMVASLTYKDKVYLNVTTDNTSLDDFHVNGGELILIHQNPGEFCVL", "UniProt Q12142, sequence (whole entry, unmodified, looked up)": "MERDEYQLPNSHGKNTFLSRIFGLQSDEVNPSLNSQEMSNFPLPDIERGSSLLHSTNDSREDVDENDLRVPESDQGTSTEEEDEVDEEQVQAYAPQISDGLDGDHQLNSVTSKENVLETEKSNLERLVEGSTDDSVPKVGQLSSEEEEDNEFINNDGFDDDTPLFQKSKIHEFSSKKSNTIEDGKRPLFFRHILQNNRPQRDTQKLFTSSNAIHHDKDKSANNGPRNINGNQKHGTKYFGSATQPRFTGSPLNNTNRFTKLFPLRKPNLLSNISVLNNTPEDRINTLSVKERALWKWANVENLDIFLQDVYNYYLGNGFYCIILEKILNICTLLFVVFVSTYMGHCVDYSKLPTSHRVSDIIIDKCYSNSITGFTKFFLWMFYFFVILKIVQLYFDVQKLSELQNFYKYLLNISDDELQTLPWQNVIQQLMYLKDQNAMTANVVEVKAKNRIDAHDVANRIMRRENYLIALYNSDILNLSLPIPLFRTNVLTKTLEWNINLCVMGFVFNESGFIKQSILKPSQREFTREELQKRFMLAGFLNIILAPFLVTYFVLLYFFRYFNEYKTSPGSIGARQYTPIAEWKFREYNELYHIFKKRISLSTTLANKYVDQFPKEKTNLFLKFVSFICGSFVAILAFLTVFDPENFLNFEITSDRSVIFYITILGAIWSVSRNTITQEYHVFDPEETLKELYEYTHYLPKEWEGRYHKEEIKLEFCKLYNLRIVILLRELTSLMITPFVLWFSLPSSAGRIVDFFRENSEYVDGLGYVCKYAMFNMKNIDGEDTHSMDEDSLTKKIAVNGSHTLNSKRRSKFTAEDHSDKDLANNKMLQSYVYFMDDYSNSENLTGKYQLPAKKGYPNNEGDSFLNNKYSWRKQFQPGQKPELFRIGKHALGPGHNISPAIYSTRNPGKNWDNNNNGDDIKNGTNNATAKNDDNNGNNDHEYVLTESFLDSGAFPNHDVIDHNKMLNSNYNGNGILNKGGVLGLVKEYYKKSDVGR", "UniProt Q86YC2, sequence (whole entry, unmodified, looked up)": "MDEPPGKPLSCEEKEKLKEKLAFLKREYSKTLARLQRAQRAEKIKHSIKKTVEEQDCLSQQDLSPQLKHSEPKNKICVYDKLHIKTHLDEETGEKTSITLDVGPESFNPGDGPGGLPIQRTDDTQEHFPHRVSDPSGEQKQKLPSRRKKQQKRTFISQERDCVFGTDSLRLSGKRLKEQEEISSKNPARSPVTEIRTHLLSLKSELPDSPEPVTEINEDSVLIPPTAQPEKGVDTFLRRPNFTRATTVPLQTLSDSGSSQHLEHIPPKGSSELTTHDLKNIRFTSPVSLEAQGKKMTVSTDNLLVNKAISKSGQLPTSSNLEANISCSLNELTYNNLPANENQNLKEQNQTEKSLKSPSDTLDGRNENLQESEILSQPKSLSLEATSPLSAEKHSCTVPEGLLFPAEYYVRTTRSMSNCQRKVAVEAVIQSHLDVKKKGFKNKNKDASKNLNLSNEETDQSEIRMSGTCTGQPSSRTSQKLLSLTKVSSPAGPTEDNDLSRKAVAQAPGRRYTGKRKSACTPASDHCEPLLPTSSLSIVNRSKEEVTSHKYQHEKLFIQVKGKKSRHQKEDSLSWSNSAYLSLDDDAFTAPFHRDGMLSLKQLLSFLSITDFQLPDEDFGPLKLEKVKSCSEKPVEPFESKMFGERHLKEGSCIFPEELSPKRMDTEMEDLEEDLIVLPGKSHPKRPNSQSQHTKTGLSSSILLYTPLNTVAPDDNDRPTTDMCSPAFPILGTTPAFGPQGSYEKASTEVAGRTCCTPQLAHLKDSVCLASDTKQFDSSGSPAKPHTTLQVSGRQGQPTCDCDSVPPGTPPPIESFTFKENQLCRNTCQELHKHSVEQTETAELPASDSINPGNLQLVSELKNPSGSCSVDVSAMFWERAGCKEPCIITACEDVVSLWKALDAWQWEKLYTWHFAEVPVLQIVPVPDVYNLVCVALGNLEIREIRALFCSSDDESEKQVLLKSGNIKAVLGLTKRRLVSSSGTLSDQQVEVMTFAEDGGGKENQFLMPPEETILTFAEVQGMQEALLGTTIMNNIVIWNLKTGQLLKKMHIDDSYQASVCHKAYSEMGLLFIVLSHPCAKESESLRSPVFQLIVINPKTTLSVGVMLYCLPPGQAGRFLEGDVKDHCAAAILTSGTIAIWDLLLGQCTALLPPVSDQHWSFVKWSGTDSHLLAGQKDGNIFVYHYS"}
{"Molecule": "B1 (PUX9)", "target or system": "CDC48A", "test": "ITC", "endpoint": "ΔH", "result": "5 ± 0.598 kcal/mol"}
{"Molecule": "DDRHRIEEKRKRTYETFKSIMKKSPFNGP (Rela 293-321 (Mus musculus, UniProt Q04207); sequence looked up)", "target or system": "NFKBIA 67-206 (Homo sapiens, UniProt P25963)", "test": "ITC", "system": "peptide", "endpoint": "ΔH", "result": "-4.2 ± 0.2 kcal/mol"}
{"Molecule": "Peginesatide", "target or system": "UT7/EPO", "test": "RT-qPCR, item: NFKBIZ", "conditions": "concentration not given, 90 min, normalized to HPRT1", "scale": "reference: vehicle", "endpoint": "mRNA level", "result": "2.1 fold"}
{"Molecule": "GGWVEKETYY", "target or system": "human MAGI1-2/6 PDZ construct (MBP fusion)", "test": "surface plasmon resonance", "system": "peptide", "conditions": "concentration not given", "scale": "higher = stronger binding", "endpoint": "normalised SPR binding response", "result": "0 normalised RU"}
{"Molecule": "B2 (DTNA 458-564)", "target or system": "DMD 3365-3685 (Homo sapiens, UniProt P11532-1)", "test": "ITC", "conditions": "25 °C", "endpoint": "ΔH", "result": "-9.95 kcal/mol"}
{"Molecule": "B3 (RelA/NFKB1 190-321 F309A)", "target or system": "NFKBIA 67-287 (Homo sapiens, UniProt P25963)", "test": "ITC", "endpoint": "ΔH", "result": "-8 kcal/mol"}
{"Molecule": "GSGAGQITKV", "target or system": "human MAGI1-2/6 PDZ construct (MBP fusion)", "test": "surface plasmon resonance", "system": "peptide", "conditions": "concentration not given", "scale": "higher = stronger binding", "endpoint": "normalised SPR binding response", "result": "0 normalised RU"}
{"Molecule": "B4 (PUX5 301-421)", "target or system": "CDC48A", "test": "ITC", "endpoint": "ΔH", "result": "-5.71 ± 0.0956 kcal/mol"}
{"Molecule": "LPDTDDRHRIEEKRKRTAETFKSIMKKSPFNGP (Rela 289-321 Y306A (Mus musculus, UniProt Q04207); sequence looked up)", "target or system": "NFKBIA 67-206 (Homo sapiens, UniProt P25963)", "test": "ITC", "system": "peptide", "endpoint": "ΔH", "result": "-2.3 ± 0.01 kcal/mol"}
{"Molecule": "colistin", "target or system": "Morganella morganii", "test": "broth microdilution", "system": "clinical isolate RKI 93/15", "endpoint": "MIC", "result": "> 64 µg/mL"}
{"Molecule": "B5 (TNFRSF4 29-170)", "target or system": "TNFSF4", "test": "SPR", "conditions": "van't Hoff", "endpoint": "ΔH", "result": "-16.9 kcal/mol"}
{"Molecule": "B6 (PIK3R1 1-79)", "target or system": "PIK3R1 80-724 (Homo sapiens, UniProt P27986)", "test": "ITC", "endpoint": "ΔH", "result": "-3.87 ± 0.741 kcal/mol"}
{"Molecule": "B7 (ATG23 full-length, dimer)", "target or system": "ATG9 1-255 (Saccharomyces cerevisiae, UniProt Q12142)", "test": "ITC", "conditions": "20 °C, NaCl 150 mM", "endpoint": "ΔH", "result": "-1.77 kcal/mol"}
{"Molecule": "BRCA1 coiled-coil domain I1405V (Homo sapiens)", "target or system": "PALB2 1-56 (Homo sapiens, UniProt Q86YC2)", "test": "ITC", "endpoint": "ΔH", "result": "-2.4 ± 0.4 kcal/mol"}
{"Molecule": "FYN fragment (Homo sapiens) (sequence not shown)", "target or system": "PIK3R1 fragment (Homo sapiens)", "test": "ITC", "endpoint": "ΔH", "result": "-14.9 ± 0.741 kcal/mol"}
{"Molecule": "B8 (TNFRSF4 29-170 W86A)", "target or system": "TNFSF4", "test": "SPR", "conditions": "van't Hoff", "endpoint": "ΔH", "result": "-18.5 kcal/mol"}
{"Molecule": "PUX6 fragment (Arabidopsis thaliana)", "target or system": "CDC48A", "test": "ITC", "endpoint": "ΔH", "result": "2.2 ± 0.0956 kcal/mol"}
{"Molecule": "LPDTDDRHRIEEKRKRTYETFKSIAKKSPFNGP (Rela 289-321 M313A (Mus musculus, UniProt Q04207); sequence looked up)", "target or system": "NFKBIA 67-206 (Homo sapiens, UniProt P25963)", "test": "ITC", "system": "peptide", "endpoint": "ΔH", "result": "-3 ± 0.02 kcal/mol"}
{"note": "Repeated from above:"}
{"Molecule": "BRCA1 coiled-coil domain I1405V (Homo sapiens)", "target or system": "PALB2 1-56 (Homo sapiens, UniProt Q86YC2)", "test": "ITC", "endpoint": "ΔH", "result": "-2.4 ± 0.4 kcal/mol"}
{"Molecule": "colistin", "target or system": "Morganella morganii", "test": "broth microdilution", "system": "clinical isolate RKI 93/15", "endpoint": "MIC", "result": "> 64 µg/mL"}
